Assay results pooled from the literature.
Lines come from different studies, so protocols differ. ± marks the error that the study gave.

SMILES	test	system	conditions	tissue uptake
CC(C)[C@H](NC(=O)[C@@H]1CCCN1C(=O)[C@H](CCCNC(=N)N)NC(=O)[C@H](CS)NC(=O)[C@H](Cc1c[nH]c2ccccc12)NC(=O)[C@H](CCCNC(=N)N)NC(=O)[C@@H](Cc1ccccc1)NC(=O)[C@H](Cc1c[nH]cn1)NC(=O)[C@H](CCC(=O)O)NC(=O)[C@H](CS)NC(=O)[C@H](CS)NC(=O)CNC(=O)[C@@H]1CC(=O)N[C@@H](CCCNC(=N)N)C(=O)NCC(=O)N[C@@H](CC(=O)O)C(=O)N[C@H](Cc2ccc(O)cc2)C(=O)N1)C(N)=O [technetium-99m labelled]		C57 mouse, female, B16/F1 melanoma, pancreas	intravenous, 0.037 MBq, 4 h	0.24 ± 0.13 %ID/g
C[C@H](CN(C)Cc1ccccc1)NC(=O)c1ccc(-c2noc(C(F)(F)[18F])n2)cc1	PET imaging	female Sprague-Dawley rats, muscle	intravenous, 10 min	0.59 ± 0.17 SUV
CCCC[C@H](NC(=O)CNC(=O)CNC(=O)CN1CCN(CC(=O)O)CCN(CC(=O)O)CCN(CC(=O)O)CC1)C(=O)N[C@H]1CC(=O)NCCCC[C@@H](C(N)=O)NC(=O)[C@H](Cc2c[nH]c3ccccc23)NC(=O)[C@H](CCCNC(=N)N)NC(=O)[C@@H](Cc2ccccc2)NC(=O)[C@H](Cc2c[nH]cn2)NC1=O [lead-203 labelled]		C57 mouse, skin	intravenous, 0.056 MBq, 24 h	0.17 ± 0.11 %ID/g
CCCC[C@H](NC(=O)CNC(=O)CNC(=O)CN1CCN(CC(=O)O)CCN(CC(=O)O)CCN(CC(=O)O)CC1)C(=O)N[C@H]1CC(=O)NCCCC[C@@H](C(N)=O)NC(=O)[C@H](Cc2c[nH]c3ccccc23)NC(=O)[C@H](CCCNC(=N)N)NC(=O)[C@@H](Cc2ccccc2)NC(=O)[C@H](Cc2c[nH]cn2)NC1=O [copper-64 labelled]		female C57 mouse, B16/F1 melanoma, liver	intravenous, 0.037 MBq, 24 h	7.23 ± 0.58 %ID/g
O=C([O-])CN1CCN(CC(=O)[O-])CCN(CC(=O)NCCc2ccc3c(c2)C2C=CCC2C(c2cc4c(cc2Br)OCO4)N3)CCN(CC(=O)[O-])CC1.[111In+3] (stereo not drawn)		mouse, Hec50 endometrial tumour, kidneys	1 h post injection	3.95 ± 0.43 %ID/g
O=C(O)C1CN(Cc2ccc(-c3noc(-c4ccc(OCC[18F])c(C(F)(F)F)c4)n3)cc2)C1		male Sprague-Dawley rat, bone	intravenous, 5 min	0.215 ± 0.027 %ID/g
CC(C)[C@H](NC(=O)[C@@H]1CCCN1C(=O)[C@H](CCCNC(=N)N)NC(=O)[C@H](CS)NC(=O)[C@H](Cc1c[nH]c2ccccc12)NC(=O)[C@H](CCCNC(=N)N)NC(=O)[C@@H](Cc1ccccc1)NC(=O)[C@H](Cc1c[nH]cn1)NC(=O)[C@H](CCC(=O)O)NC(=O)[C@H](CS)NC(=O)[C@H](CS)NC(=O)[C@@H]1CC(=O)N[C@@H](CCCNC(=N)N)C(=O)NCC(=O)N[C@@H](CC(=O)O)C(=O)N[C@H](Cc2ccc(O)cc2)C(=O)N1)C(N)=O [technetium-99m labelled]		C57 mouse, female, B16/F1 melanoma, muscle	intravenous, 0.037 MBq, 0.5 h	0.98 ± 0.21 %ID/g
CCCC[C@H](NC(=O)CNC(=O)CNC(=O)CN1CCN(CC(=O)O)CCN(CC(=O)O)CC1)C(=O)N[C@H]1CC(=O)NCCCC[C@@H](C(N)=O)NC(=O)[C@H](Cc2c[nH]c3ccccc23)NC(=O)[C@H](CCCNC(=N)N)NC(=O)[C@@H](Cc2ccccc2)NC(=O)[C@H](Cc2c[nH]cn2)NC1=O [copper-64 labelled]		female C57 mouse, B16/F1 melanoma, blood	intravenous, 0.037 MBq, 0.5 h	1.59 ± 0.19 %ID/g
OCc1cn(Cc2ccc(-c3noc(-c4ccc(OCC[18F])c(C(F)(F)F)c4)n3)cc2)nn1		female Lewis rat, lung	intravenous, 5 min	2.79 ± 0.57 %ID/g

Excerpt of the above:
SMILES	test	system	conditions	tissue uptake
O=C(O)C1CN(Cc2ccc(-c3noc(-c4ccc(OCC[18F])c(C(F)(F)F)c4)n3)cc2)C1		male Sprague-Dawley rat, bone	intravenous, 5 min	0.215 ± 0.027 %ID/g
